Measurements pooled from the literature.
A part holds a random share of what one study measured. Changes are numbered by the printed parent chain.

Sample 1
Target: Runt-related transcription factor 3, Runt domain (RUNX3, Homo sapiens, UniProt Q13761, residues 53-186)
UniProt Q13761, sequence (53-186, looked up): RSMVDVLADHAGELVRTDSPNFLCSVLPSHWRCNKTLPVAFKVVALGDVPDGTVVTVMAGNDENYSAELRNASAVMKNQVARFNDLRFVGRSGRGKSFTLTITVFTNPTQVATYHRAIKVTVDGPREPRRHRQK
Technique: protein-binding microarray
Form: hairpin DNA
Medium: in vitro
Tested at: not given
Setting: whole hairpin DNA, median over replicate spots
Relative to: not given
Direction: higher = stronger binding
| Sequence | median fluorescence [a.u.] |
| --- | --- |
| CTCAGTTCCGTGGGCTGGACTCCTGTCCAGCCCACGGAACTGAGACACTC (5mC at 35) | 4390 |
| GAGGCCTGCTGTGGTTGGCCTCCTGGCCAACCACAGCAGGCCTCACACTC | 5840 |
| CTCAGTTCTGGGGGCTGGACTCCTGTCCAGCCCCCAGAACTGAGACACTC | 4060 |
| GAGGCCTGTCGCGGCTGGCCTCCTGGCCAGCCGCGACAGGCCTCACACTC (5mC at 15) | 5470 |
| GAGGCCCAACCGCAACAGCCTCCTGGCTGTTGCGGTTGGGCCTCACACTC (5mC at 13) | 10200 |
| GAGGCCCAACCGCAACAGCCTCCTGGCTGTTGCGGTTGGGCCTCACACTC (5mC at 11 33) | 5430 |
| CTCAGTTCTGTGGGATGGACTCCTGTCCATCCCACAGAACTGAGACACTC | 3810 |
| GAGGCCCAACCGCTACAGCCTCCTGGCTGTAGCGGTTGGGCCTCACACTC | 5540 |

Sample 2
Target: Max dimerization protein 1, bHLH-zipper, MAX partner unstated (MXD1, Homo sapiens, UniProt Q05195, residues 56-136)
Technique: protein-binding microarray
Form: double-stranded DNA, one strand shown
Medium: in vitro
Tested at: not given
Setting: k-mer, scored over probes, only values ≥0.25
Direction: higher = stronger binding
Residues (chain): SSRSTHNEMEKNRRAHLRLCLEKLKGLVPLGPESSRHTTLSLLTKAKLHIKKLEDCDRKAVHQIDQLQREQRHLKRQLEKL
| Sequence | E-score |
| --- | --- |
| AGAGCATG | 0.382 |
| CCCGTGTA | 0.283 |
| CCCTCTCC | 0.27 |
| CGTGGCTC | 0.294 |
| AAACACGT | 0.371 |
| AAGCGCAT | 0.262 |
| CGTGTTGC | 0.297 |
| CACCCCCG | 0.251 |

Sample 3
Target: CCNF, cyclin fold, Cln2 fusion (human)
Technique: yeast growth competition, sequencing
Medium: yeast
Setting: strong parent motif
Relative to: not given
Direction: higher = stronger binding
Starting sequence: PKMYT1 docking peptide (human); SFEPRNLLSLFED
| Substitution | normalised enrichment score |
| --- | --- |
| SFEPRNLLSLFPD [E12P] | 0.281 |
| SFEPRNYLSLFED [L7Y] | -1.13 |
| SFEPRNLLSLFEV [D13V] | 1.44 |
| SFEPRSLLSLFED [N6S] | 2.71 |
| SFAPRNLLSLFED [E3A] | 2.32 |
| SFERRNLLSLFED [P4R] | 0.127 |
| SFEPRNLLSLFEY [D13Y] | 2.62 |
| AFEPRNLLSLFED [S1A] | 1.94 |

Further values, each from its own experiment
| SMILES | target | read-out | technique | tested at | measurement | value |
| --- | --- | --- | --- | --- | --- | --- |
| CNC(=O)Nc1ccc2c(c1)[C@@]1(CC2)OC(=O)N(CC(=O)N(Cc2ccc(F)cc2)[C@@H](C)C(F)(F)F)C1=O | Receptor-type tyrosine-protein kinase FLT3 (FLT3, Homo sapiens, UniProt P36888, D835H) | cell-free assay | competition with immobilised ligand | 1 µM | remaining binding | 99% |

Repeated from above (sample 2):
| Sequence | E-score |
| --- | --- |
| AGAGCATG | 0.382 |
| CCCGTGTA | 0.283 |
| CCCTCTCC | 0.27 |
| CGTGGCTC | 0.294 |
